# Measured values pooled from the literature.
# Lines come from different studies, so protocols differ. ± marks the error that the study gave.
# CASP10: Caspase-10 (CASP10, Homo sapiens, UniProt Q92851)
# UniProt Q92851, sequence (whole entry, looked up): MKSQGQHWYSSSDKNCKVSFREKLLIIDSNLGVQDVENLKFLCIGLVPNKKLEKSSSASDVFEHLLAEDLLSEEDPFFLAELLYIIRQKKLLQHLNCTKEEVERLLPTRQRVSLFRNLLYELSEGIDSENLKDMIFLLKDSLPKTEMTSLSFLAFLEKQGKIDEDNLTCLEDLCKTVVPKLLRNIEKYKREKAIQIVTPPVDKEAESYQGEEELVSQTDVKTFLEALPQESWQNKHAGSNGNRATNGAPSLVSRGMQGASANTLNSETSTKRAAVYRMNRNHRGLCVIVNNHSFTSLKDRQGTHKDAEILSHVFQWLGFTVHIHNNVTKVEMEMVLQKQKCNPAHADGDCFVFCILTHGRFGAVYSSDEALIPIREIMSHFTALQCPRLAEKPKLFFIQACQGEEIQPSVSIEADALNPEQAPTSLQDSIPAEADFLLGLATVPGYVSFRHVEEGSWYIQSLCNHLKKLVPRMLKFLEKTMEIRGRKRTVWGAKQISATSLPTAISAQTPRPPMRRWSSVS
# CASP8: Caspase-8 (CASP8, Homo sapiens, UniProt Q14790)
# UniProt Q14790, sequence (whole entry, looked up): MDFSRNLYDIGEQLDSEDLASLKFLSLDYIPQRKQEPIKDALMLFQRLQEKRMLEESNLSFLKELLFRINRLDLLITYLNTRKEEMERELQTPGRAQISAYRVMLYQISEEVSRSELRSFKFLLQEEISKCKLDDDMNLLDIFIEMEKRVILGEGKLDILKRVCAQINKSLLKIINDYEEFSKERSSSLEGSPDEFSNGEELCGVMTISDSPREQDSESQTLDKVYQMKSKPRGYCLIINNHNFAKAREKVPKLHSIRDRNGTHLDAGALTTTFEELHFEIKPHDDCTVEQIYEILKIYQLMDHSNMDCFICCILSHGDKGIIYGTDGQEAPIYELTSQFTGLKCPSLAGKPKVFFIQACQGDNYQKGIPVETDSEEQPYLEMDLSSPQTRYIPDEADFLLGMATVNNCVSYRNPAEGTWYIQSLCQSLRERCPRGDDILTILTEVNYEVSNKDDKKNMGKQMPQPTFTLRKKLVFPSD
# UniProt P08069, sequence (whole entry, looked up): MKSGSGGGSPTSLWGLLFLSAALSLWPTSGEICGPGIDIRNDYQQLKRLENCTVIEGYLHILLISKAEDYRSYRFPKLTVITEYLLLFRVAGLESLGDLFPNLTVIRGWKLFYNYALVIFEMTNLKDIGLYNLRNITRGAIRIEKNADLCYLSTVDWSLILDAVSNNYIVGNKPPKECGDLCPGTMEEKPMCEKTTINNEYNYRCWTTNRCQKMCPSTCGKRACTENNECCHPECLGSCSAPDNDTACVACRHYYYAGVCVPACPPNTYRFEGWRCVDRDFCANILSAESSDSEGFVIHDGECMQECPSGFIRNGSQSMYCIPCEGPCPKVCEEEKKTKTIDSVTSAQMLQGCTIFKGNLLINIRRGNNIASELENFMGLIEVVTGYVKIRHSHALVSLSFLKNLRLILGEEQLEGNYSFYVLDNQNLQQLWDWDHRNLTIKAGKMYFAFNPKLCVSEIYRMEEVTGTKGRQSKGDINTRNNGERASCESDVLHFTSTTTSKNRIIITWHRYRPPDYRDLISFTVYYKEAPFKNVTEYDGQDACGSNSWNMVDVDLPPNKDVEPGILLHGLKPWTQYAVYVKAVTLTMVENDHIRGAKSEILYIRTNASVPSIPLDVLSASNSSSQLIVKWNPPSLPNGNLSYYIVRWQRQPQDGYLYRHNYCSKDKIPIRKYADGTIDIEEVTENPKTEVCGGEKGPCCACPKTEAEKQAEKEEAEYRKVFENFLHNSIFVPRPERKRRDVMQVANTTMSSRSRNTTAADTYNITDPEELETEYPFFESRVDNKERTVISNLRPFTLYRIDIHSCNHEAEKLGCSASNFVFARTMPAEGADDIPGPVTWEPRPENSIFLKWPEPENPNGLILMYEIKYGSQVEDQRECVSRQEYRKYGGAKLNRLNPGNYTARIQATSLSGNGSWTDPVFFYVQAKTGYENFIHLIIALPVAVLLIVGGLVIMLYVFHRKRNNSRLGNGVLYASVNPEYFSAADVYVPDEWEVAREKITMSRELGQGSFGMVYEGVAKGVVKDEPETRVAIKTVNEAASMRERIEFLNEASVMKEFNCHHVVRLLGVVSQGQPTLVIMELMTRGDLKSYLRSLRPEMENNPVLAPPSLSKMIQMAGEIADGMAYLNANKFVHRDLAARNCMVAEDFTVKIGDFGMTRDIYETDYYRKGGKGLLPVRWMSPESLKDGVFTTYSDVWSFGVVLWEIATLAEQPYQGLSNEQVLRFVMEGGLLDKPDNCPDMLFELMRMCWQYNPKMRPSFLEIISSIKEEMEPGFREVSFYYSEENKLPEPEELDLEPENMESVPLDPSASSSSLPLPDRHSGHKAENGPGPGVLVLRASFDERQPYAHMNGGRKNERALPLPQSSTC
# UniProt Q96IJ6, sequence (whole entry, looked up): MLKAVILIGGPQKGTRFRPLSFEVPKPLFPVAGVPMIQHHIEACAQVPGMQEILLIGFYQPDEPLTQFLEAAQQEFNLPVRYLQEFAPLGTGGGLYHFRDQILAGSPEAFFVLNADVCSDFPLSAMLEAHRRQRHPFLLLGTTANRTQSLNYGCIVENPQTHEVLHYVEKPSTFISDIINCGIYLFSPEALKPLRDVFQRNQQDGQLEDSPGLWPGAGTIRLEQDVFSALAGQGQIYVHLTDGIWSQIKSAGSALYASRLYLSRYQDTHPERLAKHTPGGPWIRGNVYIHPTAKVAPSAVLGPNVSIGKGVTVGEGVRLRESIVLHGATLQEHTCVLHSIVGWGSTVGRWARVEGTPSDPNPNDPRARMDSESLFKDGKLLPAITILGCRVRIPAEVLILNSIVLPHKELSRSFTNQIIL
# UniProt P14060, sequence (whole entry, looked up): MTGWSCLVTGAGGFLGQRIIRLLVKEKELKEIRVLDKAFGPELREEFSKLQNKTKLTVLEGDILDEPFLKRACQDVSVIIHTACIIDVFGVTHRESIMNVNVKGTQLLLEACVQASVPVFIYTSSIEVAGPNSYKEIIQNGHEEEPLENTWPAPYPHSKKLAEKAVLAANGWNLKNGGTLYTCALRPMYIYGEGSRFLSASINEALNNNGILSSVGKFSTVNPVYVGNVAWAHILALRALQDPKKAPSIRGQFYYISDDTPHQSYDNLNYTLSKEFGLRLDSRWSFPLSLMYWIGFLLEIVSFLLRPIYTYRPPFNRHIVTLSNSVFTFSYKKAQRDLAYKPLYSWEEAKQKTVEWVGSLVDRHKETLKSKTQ
# UniProt P55060, sequence (whole entry, looked up): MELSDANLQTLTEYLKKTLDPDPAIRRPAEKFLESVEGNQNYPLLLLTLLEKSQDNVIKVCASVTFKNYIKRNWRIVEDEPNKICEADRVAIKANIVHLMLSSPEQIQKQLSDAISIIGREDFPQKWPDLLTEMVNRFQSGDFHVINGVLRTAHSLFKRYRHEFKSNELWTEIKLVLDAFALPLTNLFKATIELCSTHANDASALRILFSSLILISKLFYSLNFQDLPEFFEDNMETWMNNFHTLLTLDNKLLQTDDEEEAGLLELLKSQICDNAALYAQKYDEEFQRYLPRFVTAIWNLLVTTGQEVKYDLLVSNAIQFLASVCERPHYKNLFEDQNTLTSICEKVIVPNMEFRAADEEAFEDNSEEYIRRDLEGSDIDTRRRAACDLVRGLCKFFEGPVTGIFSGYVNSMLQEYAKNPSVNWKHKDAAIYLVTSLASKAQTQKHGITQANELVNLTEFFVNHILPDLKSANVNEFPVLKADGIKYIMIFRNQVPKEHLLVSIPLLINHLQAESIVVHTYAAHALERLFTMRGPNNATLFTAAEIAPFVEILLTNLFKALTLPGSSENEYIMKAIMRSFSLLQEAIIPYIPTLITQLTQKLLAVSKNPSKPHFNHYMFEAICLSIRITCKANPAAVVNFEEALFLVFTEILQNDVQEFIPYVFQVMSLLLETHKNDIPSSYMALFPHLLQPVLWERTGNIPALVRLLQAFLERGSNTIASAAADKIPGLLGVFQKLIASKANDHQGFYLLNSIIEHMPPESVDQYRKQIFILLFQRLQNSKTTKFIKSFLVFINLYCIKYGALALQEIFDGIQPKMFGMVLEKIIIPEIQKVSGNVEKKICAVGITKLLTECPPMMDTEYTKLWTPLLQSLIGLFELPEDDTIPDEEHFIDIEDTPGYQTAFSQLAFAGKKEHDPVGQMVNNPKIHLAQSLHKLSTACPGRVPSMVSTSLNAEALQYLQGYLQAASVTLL
# UniProt P27694, sequence (whole entry, looked up): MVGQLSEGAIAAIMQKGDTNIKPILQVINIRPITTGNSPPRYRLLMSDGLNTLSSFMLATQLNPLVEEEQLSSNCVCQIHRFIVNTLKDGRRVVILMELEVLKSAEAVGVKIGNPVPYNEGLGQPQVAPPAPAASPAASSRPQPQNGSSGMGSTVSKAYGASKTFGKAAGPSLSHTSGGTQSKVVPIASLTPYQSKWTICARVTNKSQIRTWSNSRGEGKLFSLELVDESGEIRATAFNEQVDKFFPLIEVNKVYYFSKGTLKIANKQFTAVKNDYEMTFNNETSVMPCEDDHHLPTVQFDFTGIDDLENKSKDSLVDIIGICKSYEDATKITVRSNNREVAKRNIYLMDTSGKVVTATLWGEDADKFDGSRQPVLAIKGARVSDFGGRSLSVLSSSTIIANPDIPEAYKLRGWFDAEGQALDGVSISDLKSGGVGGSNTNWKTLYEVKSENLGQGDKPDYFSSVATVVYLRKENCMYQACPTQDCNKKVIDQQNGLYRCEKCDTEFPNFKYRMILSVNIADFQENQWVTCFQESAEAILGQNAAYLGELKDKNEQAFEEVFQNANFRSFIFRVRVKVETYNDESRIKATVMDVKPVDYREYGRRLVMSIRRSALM
SMILES,target or system,assay,system,conditions,how to read,quantity,value
CC[C@H](C)[C@H](NC(=O)[C@@H](NC(=O)[C@H](CCCCN)NC(=O)[C@@H](NC(=O)CNC(=O)[C@@H](N)CCCNC(=N)N)[C@@H](C)O)C(C)C)C(=O)N[C@@H](CC(C)C)C(=O)N[C@@H](Cc1c[nH]cn1)C(=O)N[C@@H](CC(C)C)C(N)=O,"MAPT (Homo sapiens, UniProt P10636)","fibril formation, ThT fluorescence",,"0.1-fold of tau, 37 °C, together with: wild-type tau 10 µM, heparin",relative to: untreated,aggregation half-time,74 ± 10%
CC(=O)N[C@@H](CC(C)C)C(=O)N[C@H](C(=O)N[C@@H](Cc1ccc(O)cc1)C(=O)N[C@@H](CC(=O)O)C(=O)COC(=O)c1c(C)cccc1C)C(C)(C)C,CASP10,"enzyme activity, inhibitor",,,,kinact/KI,407000 M⁻¹ s⁻¹
CC[C@H](C)[C@H](NC(=O)[C@@H](NC(=O)[C@H](CCCCN)NC(=O)[C@@H](N)[C@@H](C)O)C(C)C)C(=O)N[C@@H](CC(C)C)C(=O)N[C@@H](Cc1c[nH]cn1)C(N)=O,"Microtubule-associated protein tau, PHF6* peptide (MAPT, Homo sapiens, UniProt P10636)","fibril formation, ThT fluorescence",,"5-fold of peptide, 240 min, pH 7.4, together with: Ac-PHF6* 25 µM, heparin",relative to: untreated,ThT fluorescence,5 ± 1%
CCCCCC(O)/C=C/C=O (stereo not shown),"Exportin-2 (Homo sapiens, UniProt P55060)","competitive isoTOP-ABPP, refers to: CSE1L cysteine peptide","proteome, soluble, MDA-MB-231","100 µM, together with: iodoacetamide probe","relative to: DMSO over compound-treated, higher = stronger cysteine blockade",isoTOP-ABPP competition ratio,1.7
COc1ccc(NC(=O)Nc2ccc3c(c2)C(=O)N(C(C)CO)CC(C)C(CN(C)Cc2ccc4c(c2)OCO4)O3)cc1 (stereo not shown),"IGF1R (Homo sapiens, UniProt P08069)","binding, competition with immobilised ligand",,10 µM,,remaining binding,88%
CCN(CC)C(=O)c1ccc(O)c(OC)c1,"Heat shock protein HSP 90-alpha, N-terminal domain (HSP90AA1, Homo sapiens, UniProt P07900)","binding, ligand-observed NMR titration",,"9.86 µM, ligand to protein ratio 272",,bound ligand fraction,0.28
CC(=O)N[C@@H](Cc1ccccc1)C(=O)N[C@@H](CC(=O)O)C(=O)N[C@@H](CCC(=O)O)C(=O)N1CCC[C@H]1C(=O)N[C@@H](CC(=O)O)C(=O)COC(=O)c1c(C)cccc1C,CASP10,"enzyme activity, inhibitor",,,,kinact/KI,177000 M⁻¹ s⁻¹
CC(C=CC=C(C)C=CC1=C(C)CCCC1(C)C)=CC=O,"Rhodopsin (RHO, Homo sapiens, UniProt P08100, P23H)","immunostaining, refers to: opsin",COS-7 transfected,"50.00 µM, unit not given",relative to: surface over total stained cells,plasma membrane localization,0.98
N#CN1CC[C@H](C(=O)Nc2nc3c(s2)CN(C(=O)Cn2cc(COCCOCCOCCOCCNC(=O)CCCC[C@@H]4SC[C@@H]5NC(=O)N[C@@H]54)nn2)CC3)C1,"USP24 (Homo sapiens, UniProt Q9UPU5)","probe binding, affinity probe, neutravidin pull-down LC-MS/MS","HEK293T, cell lysate","5 µM, 1 h, mean of three replicates, unit not given",higher = more pulled down,iBAQ abundance,915000
O=C(CC1CC2CCC1C2)NCCNC(=O)Cn1c(=O)[nH]c(=O)c2ccccc21 (stereo not shown),"PARP2 (Homo sapiens, UniProt Q9UGN5)","enzyme activity, inhibitor",,0.5 µM,,inhibition,91%
C=CC(=O)N1CC2(CCN(c3nc(OC4CCN(CCCOC)CC4)nc4c(OCC(F)(F)F)c(-c5c(C)ccc6[nH]ncc56)c(C5CC5)cc34)CC2)C1,"GTPase KRas, GDP-bound (KRAS, Homo sapiens, UniProt P01116, C118S/G12C)",covalent inhibitor,,,,kinact/KI,673000 M⁻¹ s⁻¹
COC(=O)[C@@]1(Cc2ccccc2)C=C(C(=O)OC(C)(C)C)C(=O)CC1,"MAPK14 (Homo sapiens, UniProt Q16539, C119V)","peptide binding, fluorescence polarization",,500 µM,,fraction bound,0.0328
CCCCCC=CC=C1C(=O)C=CC1CC=CCCCC(=O)O (stereo not shown),"Mannose-1-phosphate guanylyltransferase regulatory subunit alpha (GMPPA, Homo sapiens, UniProt Q96IJ6)","competitive isoTOP-ABPP, refers to: GMPPA cysteine peptide",Ramos soluble proteome,"100 µM, together with: iodoacetamide probe","relative to: DMSO over compound-treated, higher = stronger cysteine blockade",isoTOP-ABPP competition ratio,1.6
O=C1c2sc(-c3ccc(N4CCC(F)C4)nc3F)nc2CCN1c1cccnc1 (stereo not shown),"TAR DNA-binding protein 43, aggregated (TARDBP, Homo sapiens, UniProt Q13148)",saturation autoradiography,"human, FTLD-TDP type A brain sections",31.25 nM,,specific binding,202 nM
Cc1ncsc1-c1ccc(C(C)NC(=O)C2CC(O)CN2C(=O)C(NC(=O)CCCCCCCCCCN2CCCC(Nc3ncc(Cl)c(Nc4ccccc4S(=O)(=O)C(C)C)n3)C2)C(C)(C)C)cc1 (stereo not shown),22Rv1,"RNA-seq, refers to: PTER mRNA",,concentration not given,relative to: DMSO,log2 fold change,-1.13
CC[C@H](C)[C@H](NC(C)=O)C(=O)N[C@@H](CCC(=O)O)C(=O)N[C@H](C(=O)N[C@@H](CC(=O)O)C(=O)COC(=O)c1c(C)cccc1C)[C@@H](C)O,CASP8,"enzyme activity, inhibitor",,,,kinact/KI,1.14e+06 M⁻¹ s⁻¹
CC(C)C1=CC23CCC4C(C)(C(=O)O)CCCC4(C)C2CC1C(C(=O)O)C3C(=O)O (stereo not shown),"RPA1 (Homo sapiens, UniProt P27694)","binding, tryptophan fluorescence quenching",,"3 µM, full-length protein, emission 348 nm",,tryptophan fluorescence change,28%
CC(C)[C@@H]1NC(=O)[C@H](Cc2ccccc2)NC(=O)CSC[C@@H](C(N)=O)NC(=O)[C@H](CCC(=O)O)NC(=O)[C@H](CO)NC(=O)[C@H](Cc2c[nH]c3cccc(Cl)c23)NC(=O)[C@H](C2CCCCC2)NC(=O)[C@H](C(C)C)NC(=O)[C@H](Cc2ccc(O)cc2)NC(=O)[C@H](CC(=O)O)NC(=O)[C@H](Cc2c[nH]c3ccccc23)NC(=O)[C@H](Cc2ccc(N)nc2)NC(=O)[C@H](Cc2c[nH]c3ccc(Cl)cc23)NC(=O)[C@H](CCC(=O)O)NC1=O,"Interleukin-1 receptor-like 2 (IL1RL2, Homo sapiens, UniProt Q9HB29)","reporter gene (SEAP), inhibitor, HEK-Blue IL-36R reporter",HEK-Blue IL-36R cells,"0.0017 µM, 6 h, together with: IL-36γ 0.03 ng/mL",,remaining activity,95.6%
CC(=O)N[C@@H](CCC(N)=O)C(=O)N[C@@H](CC(C)C)C(=O)N[C@@H](CCCC(=O)O)C(=O)N1CCC[C@H]1C(=O)N[C@@H](CC(=O)O)C(=O)COC(=O)c1c(C)cccc1C,CASP8,"enzyme activity, inhibitor",,,,kinact/KI,1.13e+06 M⁻¹ s⁻¹
COC1CN([C@H]2CC[C@H]([C@@]3(C)Oc4c(Cl)cc(C(=O)NCc5c(SC)cc(C)[nH]c5=O)c(C)c4O3)CC2)C1,,"RNA-seq, refers to: RAB36","human, whole blood","dose not given, 24 h",relative to: pretreatment baseline,log2 fold change,1.53
CC(=O)N[C@@H](Cc1ccc(I)cc1)C(=O)N[C@@H](CCC(=O)O)C(=O)N[C@H](C(=O)N[C@@H](CC(=O)O)C(=O)COC(=O)c1c(C)cccc1C)[C@@H](C)O,CASP10,"enzyme activity, inhibitor",,,,kinact/KI,154000 M⁻¹ s⁻¹
CNS(=O)(=O)Nc1nccc(Cc2c(C)c3ccc(Oc4ncccc4F)cc3oc2=O)c1F,HGC-27,cell viability,,7 days,,IC50,> 1000 nM
C#CCOC(=O)[C@@]1(C)C=C(C(=O)OC(C)(C)C)C(=O)CC1,"MAPK8 (Homo sapiens, UniProt P45983)","D-peptide binding, inhibitor, FP peptide displacement",,200 µM,lower is stronger displacement,fraction bound,0
Nc1ccc(-c2coc3cc(O)ccc3c2=O)cc1,"HSD3B1 (Homo sapiens, UniProt P14060)",[3H]-DHEA conversion,LNCaP,"0.1 µM, normalized to protein, unit not given",relative to: vehicle,DHEA metabolism,0.87
CC[C@H](C)[C@H](NC(=O)[C@H](CCCC(=O)O)NC(=O)[C@H](CC(=O)O)NC(C)=O)C(=O)N[C@@H](CC(=O)O)C(=O)COC(=O)c1c(C)cccc1C,CASP8,"enzyme activity, inhibitor",,,,kinact/KI,730000 M⁻¹ s⁻¹
Cc1cnc2nc1Nc1cccc(c1)COC/C=C/COCc1cc(ccc1OCCN1CCOCC1)N2,"PNCK (Homo sapiens, UniProt Q6P2M8)",binding,,0.1 µM,,remaining binding,84%
C[n+]1cn(C2OC(COP(=O)(O)OP(=O)([O-])C(Cl)(Cl)P(=O)(O)OP(=O)(O)OCC3OC(n4cnc5c(=O)[nH]c(N)nc54)C(O)C3O)C(O)C2O)c2nc(N)nc(O)c21 (stereo not shown),"DCPS (Homo sapiens, UniProt Q96C86)","substrate, HPLC",,"concentration not given, 30 min",,hydrolysis,0%
Fc1ccc(Nc2nc(NC3CCCCC3)c3cc(Br)ccc3n2)cc1F,"ADRB2 (Homo sapiens, UniProt P07550, I153L)","β-arrestin2 recruitment, antagonist, BRET",,mutant I153L,relative to: isoprenaline maximal response,maximal inhibition,1.5%
CC(=O)N[C@@H](CC(=O)O)C(=O)N[C@@H](C)C(=O)N[C@@H](Cc1ccc(N)cc1)C(=O)N[C@@H](CC(=O)O)C(=O)COC(=O)c1c(C)cccc1C,CASP8,"enzyme activity, inhibitor",,,,kinact/KI,57000 M⁻¹ s⁻¹
C1=[N+]2CCC[N+]3=Cc4ccc5[n]4[Au-]23[n]2c1ccc2-c1nc2ccccc2nc1-5.F[P-](F)(F)(F)(F)F,"DNA topoisomerase 1 (TOP1, Homo sapiens, UniProt P11387)",,,,,Hill coefficient,1.4
C[Si]1(C[C@H](CN)CC(=O)O)CCCC1,"SLC6A4 (Homo sapiens, UniProt P31645)","ligand displacement, radioligand",,70 µM,,inhibition,7%

# A few entries again:
SMILES,target or system,assay,system,conditions,how to read,quantity,value
CCCCCC(O)/C=C/C=O (stereo not shown),"Exportin-2 (Homo sapiens, UniProt P55060)","competitive isoTOP-ABPP, refers to: CSE1L cysteine peptide","proteome, soluble, MDA-MB-231","100 µM, together with: iodoacetamide probe","relative to: DMSO over compound-treated, higher = stronger cysteine blockade",isoTOP-ABPP competition ratio,1.7
N#CN1CC[C@H](C(=O)Nc2nc3c(s2)CN(C(=O)Cn2cc(COCCOCCOCCOCCNC(=O)CCCC[C@@H]4SC[C@@H]5NC(=O)N[C@@H]54)nn2)CC3)C1,"USP24 (Homo sapiens, UniProt Q9UPU5)","probe binding, affinity probe, neutravidin pull-down LC-MS/MS","HEK293T, cell lysate","5 µM, 1 h, mean of three replicates, unit not given",higher = more pulled down,iBAQ abundance,915000
C[Si]1(C[C@H](CN)CC(=O)O)CCCC1,"SLC6A4 (Homo sapiens, UniProt P31645)","ligand displacement, radioligand",,70 µM,,inhibition,7%
CC(=O)N[C@@H](CCC(N)=O)C(=O)N[C@@H](CC(C)C)C(=O)N[C@@H](CCCC(=O)O)C(=O)N1CCC[C@H]1C(=O)N[C@@H](CC(=O)O)C(=O)COC(=O)c1c(C)cccc1C,CASP8,"enzyme activity, inhibitor",,,,kinact/KI,1.13e+06 M⁻¹ s⁻¹
